# Published values collected from several papers.
# Numbered parts are unrelated; each lists some results of a single study.
# Chain of UniProt Q8TDC3 (whole entry, looked up): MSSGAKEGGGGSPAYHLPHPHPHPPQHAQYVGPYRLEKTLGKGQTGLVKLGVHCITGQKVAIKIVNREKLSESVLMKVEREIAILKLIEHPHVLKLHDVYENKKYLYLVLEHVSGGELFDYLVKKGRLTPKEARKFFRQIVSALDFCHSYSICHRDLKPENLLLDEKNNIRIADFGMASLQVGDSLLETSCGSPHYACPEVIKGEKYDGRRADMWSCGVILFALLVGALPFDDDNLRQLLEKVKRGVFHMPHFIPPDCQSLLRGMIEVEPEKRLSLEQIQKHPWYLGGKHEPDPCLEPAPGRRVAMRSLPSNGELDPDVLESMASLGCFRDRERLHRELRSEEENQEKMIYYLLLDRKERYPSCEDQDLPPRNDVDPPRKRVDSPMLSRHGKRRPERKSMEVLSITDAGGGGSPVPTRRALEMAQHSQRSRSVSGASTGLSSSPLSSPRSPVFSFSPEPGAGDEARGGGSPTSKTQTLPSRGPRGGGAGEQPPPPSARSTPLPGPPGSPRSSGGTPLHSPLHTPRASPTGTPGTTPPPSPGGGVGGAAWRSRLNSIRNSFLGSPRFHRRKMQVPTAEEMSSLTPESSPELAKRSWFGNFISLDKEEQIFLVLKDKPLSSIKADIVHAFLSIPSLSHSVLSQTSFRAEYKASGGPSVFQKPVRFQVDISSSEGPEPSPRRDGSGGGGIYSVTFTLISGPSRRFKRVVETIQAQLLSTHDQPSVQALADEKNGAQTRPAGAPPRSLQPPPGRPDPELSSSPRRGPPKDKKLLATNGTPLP
# Chain of UniProt Q9H4B4 (whole entry, looked up): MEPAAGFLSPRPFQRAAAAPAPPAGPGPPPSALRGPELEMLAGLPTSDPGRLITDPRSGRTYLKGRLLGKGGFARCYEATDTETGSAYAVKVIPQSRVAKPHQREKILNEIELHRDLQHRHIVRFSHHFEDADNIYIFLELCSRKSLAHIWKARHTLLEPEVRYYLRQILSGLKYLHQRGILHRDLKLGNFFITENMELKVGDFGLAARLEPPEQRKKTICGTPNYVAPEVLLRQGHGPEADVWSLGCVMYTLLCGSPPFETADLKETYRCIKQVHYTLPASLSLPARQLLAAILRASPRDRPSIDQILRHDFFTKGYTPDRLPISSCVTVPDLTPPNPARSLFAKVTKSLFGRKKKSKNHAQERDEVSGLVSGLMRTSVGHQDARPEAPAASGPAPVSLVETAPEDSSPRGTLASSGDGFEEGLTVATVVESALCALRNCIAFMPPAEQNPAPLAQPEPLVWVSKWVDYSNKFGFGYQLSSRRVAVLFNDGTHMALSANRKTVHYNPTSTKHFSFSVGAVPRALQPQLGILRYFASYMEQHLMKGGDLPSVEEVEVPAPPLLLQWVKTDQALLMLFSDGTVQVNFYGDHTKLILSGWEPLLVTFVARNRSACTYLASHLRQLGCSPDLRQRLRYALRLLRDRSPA
# Chain of UniProt Q05655 (whole entry, looked up): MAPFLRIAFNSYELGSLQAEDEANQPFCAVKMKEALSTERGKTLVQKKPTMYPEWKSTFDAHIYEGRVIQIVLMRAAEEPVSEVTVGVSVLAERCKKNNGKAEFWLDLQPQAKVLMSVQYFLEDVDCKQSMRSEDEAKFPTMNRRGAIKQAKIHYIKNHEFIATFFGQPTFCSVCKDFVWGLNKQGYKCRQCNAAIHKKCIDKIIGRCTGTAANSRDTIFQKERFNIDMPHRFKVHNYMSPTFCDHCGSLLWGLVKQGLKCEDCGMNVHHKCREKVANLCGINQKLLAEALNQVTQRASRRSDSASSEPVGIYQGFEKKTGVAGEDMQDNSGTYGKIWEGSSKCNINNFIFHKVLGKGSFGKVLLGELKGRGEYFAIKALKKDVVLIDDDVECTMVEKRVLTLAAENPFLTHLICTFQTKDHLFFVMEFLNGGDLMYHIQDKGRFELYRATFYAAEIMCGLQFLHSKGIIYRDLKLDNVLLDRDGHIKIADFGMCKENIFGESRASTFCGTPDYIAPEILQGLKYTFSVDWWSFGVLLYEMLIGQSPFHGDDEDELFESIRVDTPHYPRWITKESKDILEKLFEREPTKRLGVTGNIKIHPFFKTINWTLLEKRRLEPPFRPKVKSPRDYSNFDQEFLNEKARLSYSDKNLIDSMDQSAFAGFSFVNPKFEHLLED
# Chain of UniProt P36507 (whole entry, looked up): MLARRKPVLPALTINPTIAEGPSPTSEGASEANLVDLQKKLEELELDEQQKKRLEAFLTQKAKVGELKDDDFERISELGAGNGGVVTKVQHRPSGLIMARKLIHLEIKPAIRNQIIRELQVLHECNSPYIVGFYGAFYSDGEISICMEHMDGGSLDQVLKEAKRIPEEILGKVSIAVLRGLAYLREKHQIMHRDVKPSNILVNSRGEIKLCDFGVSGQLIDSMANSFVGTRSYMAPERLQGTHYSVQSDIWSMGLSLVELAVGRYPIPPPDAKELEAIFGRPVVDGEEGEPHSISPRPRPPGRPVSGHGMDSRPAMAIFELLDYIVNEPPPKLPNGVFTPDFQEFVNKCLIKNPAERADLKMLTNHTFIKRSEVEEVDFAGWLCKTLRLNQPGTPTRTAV

# Sample 1 — SMILES: CCCCc1c(-c2ccc(OC)cc2)[nH]c2nccnc12; effect on: enzyme activity; mode: inhibitor; tested at: 0.5 µM; relative to: control
target,remaining activity [%]
"Dual specificity protein kinase CLK3 (CLK3, Homo sapiens, UniProt P49761)",116
"Mitogen-activated protein kinase 1 (MAPK1, Homo sapiens, UniProt P28482)",103
"G protein-coupled receptor kinase 4 (GRK4, Homo sapiens, UniProt P32298)",96.7
"cGMP-dependent protein kinase 2 (PRKG2, Homo sapiens, UniProt Q13237)",93.9
"Serine/threonine-protein kinase PLK3 (PLK3, Homo sapiens, UniProt Q9H4B4)",91.5
"RAC-beta serine/threonine-protein kinase (AKT2, Homo sapiens, UniProt P31751)",93.8
"Ribosomal protein S6 kinase alpha-4 (RPS6KA4, Homo sapiens, UniProt O75676)",89.4
"MAP/microtubule affinity-regulating kinase 4 (MARK4, Homo sapiens, UniProt Q96L34)",88.3
"Discoidin domain-containing receptor 2 (DDR2, Homo sapiens, UniProt Q16832)",94.3
"Vascular endothelial growth factor receptor 2 (KDR, Homo sapiens, UniProt P35968)",88.8
"Cyclin-dependent kinase 9, with cyclin K (CDK9, Homo sapiens, UniProt P50750)",56.9
"Tyrosine-protein kinase TXK (TXK, Homo sapiens, UniProt P42681)",72.7
"Serine/threonine-protein kinase MARK2 (MARK2, Homo sapiens, UniProt Q7KZI7)",83.1
"Calcium/calmodulin-dependent protein kinase type 1B (PNCK, Homo sapiens, UniProt Q6P2M8)",120

# Sample 2 — effect on: cell-free assay; method: competition with immobilised ligand; tested at: 1 µM
# Compound: Cn1nc(C(F)(F)F)cc1-c1cnc(N2CCc3cc(S(=O)(=O)Nc4c(F)cc(Cl)cc4F)cc(N4CCCC4=O)c32)nc1
target,remaining binding [%]
"BDNF/NT-3 growth factors receptor (NTRK2, Homo sapiens, UniProt Q16620)",75
"Dual specificity mitogen-activated protein kinase kinase 2 (MAP2K2, Homo sapiens, UniProt P36507)",84
"Serine/threonine-protein kinase BRSK1 (BRSK1, Homo sapiens, UniProt Q8TDC3)",100
"Protein kinase C delta type (PRKCD, Homo sapiens, UniProt Q05655)",95
"Fibroblast growth factor receptor 2 (FGFR2, Homo sapiens, UniProt P21802)",100
"Phosphatidylinositol 4-phosphate 3-kinase C2 domain-containing subunit beta (PIK3C2B, Homo sapiens, UniProt O00750)",99
"Serine/threonine-protein kinase DCLK3 (DCLK3, Homo sapiens, UniProt Q9C098)",86
"Serine/threonine-protein kinase Nek10 (NEK10, Homo sapiens, UniProt Q6ZWH5)",80

# Sample 3 — effect on: enzyme activity; mode: inhibitor; tested at: 77 µM; relative to: untreated
# Target: DNA polymerase theta, ATPase domain (POLQ, Homo sapiens, UniProt O75417)
# Chain of UniProt O75417 (whole entry, unmodified, looked up): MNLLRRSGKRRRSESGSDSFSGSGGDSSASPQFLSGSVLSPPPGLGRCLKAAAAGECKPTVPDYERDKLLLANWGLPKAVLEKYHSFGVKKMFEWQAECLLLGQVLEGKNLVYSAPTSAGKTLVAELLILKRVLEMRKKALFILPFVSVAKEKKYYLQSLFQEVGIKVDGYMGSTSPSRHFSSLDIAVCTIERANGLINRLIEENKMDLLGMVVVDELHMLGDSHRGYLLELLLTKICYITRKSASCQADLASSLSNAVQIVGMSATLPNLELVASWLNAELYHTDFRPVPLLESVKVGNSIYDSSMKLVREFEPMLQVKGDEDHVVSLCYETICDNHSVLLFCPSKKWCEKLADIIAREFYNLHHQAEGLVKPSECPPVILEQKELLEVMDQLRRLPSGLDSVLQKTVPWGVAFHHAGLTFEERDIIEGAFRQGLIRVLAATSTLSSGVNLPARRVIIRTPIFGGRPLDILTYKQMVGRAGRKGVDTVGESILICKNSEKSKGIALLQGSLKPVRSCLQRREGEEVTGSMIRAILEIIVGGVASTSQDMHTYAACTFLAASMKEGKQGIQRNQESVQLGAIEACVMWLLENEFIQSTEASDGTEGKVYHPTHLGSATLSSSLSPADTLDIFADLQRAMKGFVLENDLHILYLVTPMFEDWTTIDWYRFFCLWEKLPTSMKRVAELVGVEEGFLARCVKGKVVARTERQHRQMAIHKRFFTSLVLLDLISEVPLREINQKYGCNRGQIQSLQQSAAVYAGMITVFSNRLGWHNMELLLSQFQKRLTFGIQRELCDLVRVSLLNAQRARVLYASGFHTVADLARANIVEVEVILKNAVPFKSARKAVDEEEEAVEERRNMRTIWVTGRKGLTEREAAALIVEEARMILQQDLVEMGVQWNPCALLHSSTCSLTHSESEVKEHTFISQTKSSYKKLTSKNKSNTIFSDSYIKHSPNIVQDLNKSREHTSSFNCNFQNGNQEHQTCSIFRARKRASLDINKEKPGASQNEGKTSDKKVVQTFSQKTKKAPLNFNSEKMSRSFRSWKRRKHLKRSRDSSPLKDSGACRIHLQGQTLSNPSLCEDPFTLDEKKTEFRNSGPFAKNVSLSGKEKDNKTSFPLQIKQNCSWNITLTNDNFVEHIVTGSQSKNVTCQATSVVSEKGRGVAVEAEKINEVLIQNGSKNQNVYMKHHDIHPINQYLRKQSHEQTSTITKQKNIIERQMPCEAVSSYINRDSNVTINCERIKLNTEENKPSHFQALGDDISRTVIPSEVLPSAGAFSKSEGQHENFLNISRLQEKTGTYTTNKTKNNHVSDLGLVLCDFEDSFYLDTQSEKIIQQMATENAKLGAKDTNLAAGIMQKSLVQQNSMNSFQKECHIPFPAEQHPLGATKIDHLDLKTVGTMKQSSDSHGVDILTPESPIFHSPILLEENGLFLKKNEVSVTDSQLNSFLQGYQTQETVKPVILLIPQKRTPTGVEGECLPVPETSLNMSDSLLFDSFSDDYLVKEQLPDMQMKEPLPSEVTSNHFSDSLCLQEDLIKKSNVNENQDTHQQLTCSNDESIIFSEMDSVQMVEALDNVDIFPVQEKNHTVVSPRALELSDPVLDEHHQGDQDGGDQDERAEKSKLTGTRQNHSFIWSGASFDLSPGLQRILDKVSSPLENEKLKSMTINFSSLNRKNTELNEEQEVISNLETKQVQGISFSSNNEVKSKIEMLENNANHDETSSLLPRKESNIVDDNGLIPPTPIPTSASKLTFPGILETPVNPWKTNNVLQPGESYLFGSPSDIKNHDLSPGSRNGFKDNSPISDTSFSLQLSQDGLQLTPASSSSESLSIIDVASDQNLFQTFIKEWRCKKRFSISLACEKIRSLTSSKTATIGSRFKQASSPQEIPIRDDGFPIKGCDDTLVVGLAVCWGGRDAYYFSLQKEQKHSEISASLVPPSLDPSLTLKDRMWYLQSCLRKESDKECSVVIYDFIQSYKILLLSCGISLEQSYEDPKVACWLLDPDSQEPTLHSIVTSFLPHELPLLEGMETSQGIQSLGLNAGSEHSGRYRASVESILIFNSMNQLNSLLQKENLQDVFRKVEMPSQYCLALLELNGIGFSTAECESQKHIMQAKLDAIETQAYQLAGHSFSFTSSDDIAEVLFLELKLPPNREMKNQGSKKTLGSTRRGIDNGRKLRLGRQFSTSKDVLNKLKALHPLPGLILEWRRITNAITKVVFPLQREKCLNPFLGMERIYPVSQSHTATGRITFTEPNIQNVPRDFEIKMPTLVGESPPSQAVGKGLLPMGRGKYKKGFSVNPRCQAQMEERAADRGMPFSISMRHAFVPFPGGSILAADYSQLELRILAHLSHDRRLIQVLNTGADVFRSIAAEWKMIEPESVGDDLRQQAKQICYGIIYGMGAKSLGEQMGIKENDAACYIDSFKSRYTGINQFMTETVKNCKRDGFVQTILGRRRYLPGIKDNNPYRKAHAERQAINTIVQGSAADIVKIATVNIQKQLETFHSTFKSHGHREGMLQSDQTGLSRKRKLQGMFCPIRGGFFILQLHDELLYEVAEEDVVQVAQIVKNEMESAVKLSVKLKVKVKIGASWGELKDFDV
SMILES,remaining activity
N#C/C(=C1/SC[C@@H](c2ccc(Cl)cc2Cl)S1)n1ccnc1,102%
O=C1CN2Cc3c(ccc(Cl)c3Cl)N=C2N1,86.3%
CCCN(CCc1cccs1)[C@H]1CCc2c(O)cccc2C1,99%
NC(=O)[C@@H](CCC(F)(F)F)N(Cc1ccc(-c2ncon2)cc1F)S(=O)(=O)c1ccc(Cl)cc1,101%

# Sample 4 — host: mouse; medium: microsomes or S9; tested at: 2 µM; time: 0.5 h
Compound,remaining compound
O=c1cc(O)c2sc3nc(-c4cccs4)cc(-c4ccc(F)cc4)c3c2[nH]1,52.9%
Cc1nc2c(cc1Br)nc(Cl)n2C,0.988%
Oc1ccc(-c2oncc2-c2ccccc2)c(O)c1,23.6%
COC(C)C(C)C(=O)O[C@H]1Cc2cc3ccc(=O)oc3cc2OC1(C)C (stereo partly shown),13.9%
c1ccc(C(CNc2ncccn2)c2ccccc2)cc1,0.369%
Cn1cc(-c2noc(C3CCCCC3)n2)ccc1=O,3.42%
Clc1ccc(-c2c(-n3cncn3)nc3ccc(Cl)cc3c2Cl)c(Cl)c1,57.5%
CCOc1ccccc1-n1nnc(C(=O)O)c1-c1ccncc1,> 99%

# For quick reference, copied from above (sample 4):
Compound,remaining compound
O=c1cc(O)c2sc3nc(-c4cccs4)cc(-c4ccc(F)cc4)c3c2[nH]1,52.9%
Cc1nc2c(cc1Br)nc(Cl)n2C,0.988%
Oc1ccc(-c2oncc2-c2ccccc2)c(O)c1,23.6%
COC(C)C(C)C(=O)O[C@H]1Cc2cc3ccc(=O)oc3cc2OC1(C)C (stereo partly shown),13.9%
c1ccc(C(CNc2ncccn2)c2ccccc2)cc1,0.369%
Cn1cc(-c2noc(C3CCCCC3)n2)ccc1=O,3.42%
